Results of several laboratories.
Organism: Candida albicans

Compound | test | test system | conditions | scale | MIC
CCSC1COC(=O)N1/N=C/c1ccc([N+](=O)[O-])o1 (stereo not drawn) | microbial growth, broth dilution | ATCC14053 | 18 h | – | > 50 µg/mL
C/C(=N\NC(N)=S)c1ccc2c(c1)sc1nc(=O)c(C#N)cn12 | microbial growth, broth dilution | – | – | – | < 210 µg/mL
COc1ccc(N2C(=O)C=CC2=O)cc1 | microbial growth, broth dilution | – | – | – | 1 µg/mL
CC(C)=CCc1cc(-c2coc3cc(O)c(CC=C(C)C)c(O)c3c2=O)ccc1O | – | ATCC 10231 | – | – | 128 µg/mL
C[C@@H](c1ccn(Cc2ccc(Cl)cc2Cl)n1)[C@](O)(Cn1cnnn1)c1ccc(F)cc1F | growth, broth microdilution | SC5314 | 24 h, 30 °C, ≥50% inhibition | – | < 0.008 µg/mL
Oc1c(Cl)cc(Cl)c2cccnc12 | microbial growth, agar dilution | ATCC90028 | – | – | 37.4 µM
COc1c(CC=C(C)C)c(O)cc2c1[C@@H]1Oc3c(ccc(O)c3CC=C(C)C)[C@@H]1CO2 | – | ATCC 10231 | – | – | 128 µg/mL
O=C1OCC(NCCc2ccc(Cl)cc2)N1/N=C/c1ccc([N+](=O)[O-])o1 (stereo not drawn) | microbial growth, broth dilution | ATCC14053 | 18 h | – | > 50 µg/mL
CC(C)c1ccc(Cn2ccc([C@H](C)[C@](O)(Cn3cnnn3)c3ccc(F)cc3F)n2)cc1 | CLSI broth microdilution | SC5314 | 24 h | – | < 0.008 µg/mL
C/C(=N/NC(=N)N)c1nnn(-c2ccc(C#CC(C)(C)C)cc2)c1C | microbial growth, broth dilution | – | – | – | 4 µg/mL
C[C@@H](c1ccn(Cc2cc(F)ccc2F)n1)[C@](O)(Cn1cnnn1)c1ccc(F)cc1F | growth, broth microdilution | SC5314 | 24 h, 30 °C, ≥50% inhibition | – | 0.032 µg/mL
CC(=NNC(=N)N)c1nnn(-c2ccc(C#CC3(O)CCCCC3)cc2)c1C | microbial growth | ATCC10231 | – | – | 7.8 µg/mL
COc1ccc(-c2c(O)oc3c(CC=C(C)C)c(O)cc(O)c3c2=O)cc1 | – | NR-29450 | 48 h, 37 °C | – | > 500 µg/mL
COc1cc2c(=O)c(C(=O)NCCNCCO)cn(Cc3ccccc3)c2cc1OCc1ccc(C(C)(C)C)cc1 | – | ATCC 90028 | – | ≥80% growth inhibition | 4 µg/mL
C/C(=N\Nc1nc(-c2ccc(Cl)cc2)cs1)c1ccc2c(c1)sc1nc(=O)c(C#N)cn12 | broth microdilution | – | – | – | < 207 µg/mL
C[C@@H](c1ccn(Cc2ccc(I)cc2)n1)[C@](O)(Cn1cnnn1)c1ccc(F)cc1F | growth, broth microdilution | SC5314 | 24 h, 30 °C, ≥50% inhibition | – | < 0.008 µg/mL
N#Cc1ccc2cccc(O)c2n1 | microbial growth, agar dilution | ATCC90028 | – | – | 1500 µM
CC(C)=CCc1cc2c(cc1O)OC[C@H]1c3ccc(O)c(CC=C(C)C)c3O[C@@H]21 | – | ATCC 10231 | – | – | 4 µg/mL
C/C(=N\Nc1nc(C)cs1)c1ccc2c(c1)sc1nc(=O)c(C#N)cn12 | broth microdilution | – | – | – | < 241 µg/mL
O=c1c2ccccc2sn1-c1cc(Br)cc(Br)c1 | growth, broth dilution | ATCC 10231 | MIC-0 | – | 3.13 µg/mL

Compound | test | test system | conditions | scale | MIC
C[C@@H](c1ccn(Cc2ccc(F)c(Cl)c2)n1)[C@](O)(Cn1cnnn1)c1ccc(F)cc1F | growth, broth microdilution | SC5314 | 24 h, 30 °C, ≥50% inhibition | – | < 0.008 µg/mL
C/C(=N\NC1=NC(=O)CS1)c1ccc2c(c1)sc1nc(=O)c(C#N)cn12 | microbial growth, broth dilution | – | – | – | < 218 µg/mL
CCCSC1COC(=O)N1/N=C/c1ccc([N+](=O)[O-])o1 (stereo not drawn) | microbial growth, broth dilution | ATCC14053 | 18 h | – | > 50 µg/mL
C/C(=N/NC(=N)N)c1nnn(-c2ccc(C#Cc3ccsc3)cc2)c1C | microbial growth, broth dilution | – | – | – | 32 µg/mL
CCn1ccc([C@H](C)[C@](O)(Cn2cnnn2)c2ccc(F)cc2F)n1 | growth, broth microdilution | SC5314 | 24 h, 30 °C, ≥50% inhibition | – | 0.0625 µg/mL
CCn1cc(C(=O)NCCNCCO)c(=O)c2cc(OC)c(OCc3cccc(F)c3)cc21 | – | ATCC 90028 | – | ≥80% growth inhibition | > 32 µg/mL
CSC1COC(=O)N1/N=C/c1ccc([N+](=O)[O-])o1 (stereo not drawn) | microbial growth, broth dilution | ATCC14053 | 18 h | – | > 50 µg/mL
C[C@@H](c1ccn(Cc2cc(F)c(F)c(F)c2)n1)[C@](O)(Cn1cnnn1)c1ccc(F)cc1F | growth, broth microdilution | SC5314 | 24 h, 30 °C, ≥50% inhibition | – | 0.016 µg/mL
COC(=O)[C@]1(O)C[C@@H](O)[C@@H](O)[C@H](OC(=O)/C=C/c2ccc(O)c(O)c2)C1 | microbial growth, broth dilution | – | 48 h | – | 37.5 µM
O=C(NCCNCCO)c1cn(Cc2ccc(F)cc2)c2cc(Cl)c(OCc3ccc(C(F)(F)F)cc3)cc2c1=O | – | ATCC 90028 | – | ≥80% growth inhibition | > 32 µg/mL
C[C@@H](c1ccn(Cc2ccc(C(F)(F)F)cc2)n1)[C@](O)(Cn1cnnn1)c1ccc(F)cc1F | growth, broth microdilution | SC5314 | 24 h, 30 °C, ≥50% inhibition | – | < 0.008 µg/mL
CC(C)SC1COC(=O)N1/N=C/c1ccc([N+](=O)[O-])o1 (stereo not drawn) | microbial growth, broth dilution | ATCC14053 | 18 h | – | > 50 µg/mL
COc1ccc(-c2csc(N/N=C(\C)c3ccc4c(c3)sc3nc(=O)c(C#N)cn34)n2)cc1 | microbial growth, broth dilution | – | – | – | < 192 µg/mL
CC1C(=O)NC(=O)N1/N=C/c1ccc([N+](=O)[O-])o1 (stereo not drawn) | microbial growth, broth dilution | ATCC14053 | 18 h | – | > 50 µg/mL
CC(=O)c1ccc2c(c1)sc1nc(=O)c(C#N)cn12 | broth microdilution | – | – | – | < 213 µg/mL
O=C1OCC(NCc2ccccc2)N1/N=C/c1ccc([N+](=O)[O-])o1 (stereo not drawn) | microbial growth, broth dilution | ATCC14053 | 18 h | – | > 50 µg/mL
O=C(NCCNCCO)c1cn(Cc2cccc(Br)c2)c2cc(Cl)c(OCc3ccc(C(F)(F)F)cc3)cc2c1=O | – | ATCC 90028 | – | ≥80% growth inhibition | > 32 µg/mL
C[Si](C)(C)Cc1ccc(C2COC(=O)N2/N=C/c2ccc([N+](=O)[O-])o2)cc1 (stereo not drawn) | microbial growth, broth dilution | ATCC14053 | 18 h | – | > 50 µg/mL
CCCCCC1CC2CCCC3CC(C)N=C(N1)N32 (stereo not drawn) | fungal growth | ATCC 90028 | – | – | 31.7 µM

A few entries again:
Compound | test | test system | conditions | scale | MIC
C[C@@H](c1ccn(Cc2ccc(Cl)cc2Cl)n1)[C@](O)(Cn1cnnn1)c1ccc(F)cc1F | growth, broth microdilution | SC5314 | 24 h, 30 °C, ≥50% inhibition | – | < 0.008 µg/mL
O=C(NCCNCCO)c1cn(Cc2cccc(Br)c2)c2cc(Cl)c(OCc3ccc(C(F)(F)F)cc3)cc2c1=O | – | ATCC 90028 | – | ≥80% growth inhibition | > 32 µg/mL
COc1c(CC=C(C)C)c(O)cc2c1[C@@H]1Oc3c(ccc(O)c3CC=C(C)C)[C@@H]1CO2 | – | ATCC 10231 | – | – | 128 µg/mL
C[C@@H](c1ccn(Cc2cc(F)ccc2F)n1)[C@](O)(Cn1cnnn1)c1ccc(F)cc1F | growth, broth microdilution | SC5314 | 24 h, 30 °C, ≥50% inhibition | – | 0.032 µg/mL
CC(=NNC(=N)N)c1nnn(-c2ccc(C#CC3(O)CCCCC3)cc2)c1C | microbial growth | ATCC10231 | – | – | 7.8 µg/mL
